# Experimental data pooled from the literature.
# Numbered parts are unrelated; each lists some results of a single study.

# Block 1 — technique: protein binding microarray; molecule type: double-stranded DNA, one strand shown; sample: in vitro; concentration: not given; reference: not given; direction: higher = stronger binding
# Target: Histone acetyltransferase KAT6A, winged helix 1, GST fusion (KAT6A, Homo sapiens, UniProt Q92794, residues 1-85)
# Setting: 8-mer, flanks averaged, mean of 2 arrays, mostly near background
# Residues (chain): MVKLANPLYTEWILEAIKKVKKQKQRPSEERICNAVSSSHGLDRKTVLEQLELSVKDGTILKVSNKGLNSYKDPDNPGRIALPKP
Strand,E-score
TGCCGTAA,0.342
AGCCTTGG,-0.185
CGGTTCAG,0.135
GCCCTAGC,-0.0221
CAGAGACG,0.0394
ATTGTTTG,-0.0331
GATGTCTA,-0.046
ACAAGTGC,-0.179

# Block 2 — effect on: enzyme activity; mode: inhibitor; concentration: 20 µM; setting: primary screen
# Target: Replicase polyprotein 1ab, main protease (rep, Severe acute respiratory syndrome coronavirus 2, UniProt P0DTD1)
SMILES,inhibition
O=C(O)c1c(Cl)c(Cl)c(Cl)c(Cl)c1-c1c2cc(I)c(=O)c(I)c-2oc2c(I)c(O)c(I)cc12,112%
CC(=O)N[C@H](Cc1ccc2ccccc2c1)C(=O)N[C@H](Cc1ccc(Cl)cc1)C(=O)N[C@H](Cc1cccnc1)C(=O)N[C@@H](CO)C(=O)N[C@@H](Cc1ccc(O)cc1)C(=O)N[C@H](CCCNC(N)=O)C(=O)N[C@@H](CC(C)C)C(=O)N[C@@H](CCCNC(=N)N)C(=O)N1CCC[C@H]1C(=O)N[C@H](C)C(N)=O,28.3%
C=CC(=O)c1ccc2ccccc2c1,94.5%
CCCCOc1ccc(C(=O)CCN2CCCCC2)cc1,47%

# Block 3 — cell line: HEK-293T-ACE2; concentration: concentration not given; reference: vehicle
Structure (SMILES),cell number
COCCc1ccc(OCC(O)CNC(C)C)cc1.COCCc1ccc(OCC(O)CNC(C)C)cc1.O=C(O)CCC(=O)O (stereo not drawn),101%
C=CCN1CC[C@]23c4c5ccc(O)c4O[C@H]2[C@@H](OCCOCCOCCOCCOCCOCCOCCOC)CC[C@@]3(O)[C@H]1C5.O=C(O)C(=O)O,101%
CC(C)C(=O)OCC(=O)[C@@]12O[C@H](C3CCCCC3)O[C@@H]1C[C@H]1[C@@H]3CCC4=CC(=O)C=C[C@]4(C)[C@H]3[C@@H](O)C[C@@]12C,70.4%

# Block 4 — effect on: enzyme activity; mode: inhibitor; concentration: 20 µM
# Target: Replicase polyprotein 1ab, polymerase (rep, Severe acute respiratory syndrome coronavirus 2, UniProt P0DTD1)
Structure (SMILES),inhibition [%]
Cc1ncc([N+](=O)[O-])n1C,2.93
O=C(O)Cc1ccc(-c2ccccc2)cc1,-1.74
Cc1ccc(C(=O)c2ccc(CC(=O)O)n2C)cc1,17.4
Cc1ccnc(NS(=O)(=O)c2ccc(N)cc2)n1,27
CO/N=C(\C(=O)N[C@@H]1C(=O)N2C(C(=O)O)=C(CSc3nc(=O)c(O)nn3C)CS[C@H]12)c1csc(N)n1,4.42
CC(C)Cn1cnc2c1c(=O)n(C)c(=O)n2C,-4.62
CN1C(C(=O)Nc2ccccn2)=C(O)c2sccc2S1(=O)=O,-3.67
CCC(=O)O[C@@](Cc1ccccc1)(c1ccccc1)[C@@H](C)CN(C)C,-2.92
CCN(CC)C(=S)S,-5.73
CN(C)CCC(O)(c1ccccc1)c1ccccc1Cl (stereo not drawn),-10.9
CC(NC(=O)c1ccccc1/N=C/c1c(O)ccc2ccccc12)c1ccccc1 (stereo not drawn),0.8
CC1(N2CCC(n3c([C@@H]4CCCNC4)nc4ccccc43)CC2)CCCCCCC1,-2.55
C/C(=N\NC(=O)[C@H]1C(=O)NC[C@@H]1c1ccccc1)c1cccc(Br)c1,-12.8
CN(CCOc1ccc(CC2SC(=O)NC2=O)cc1)c1ccccn1 (stereo not drawn),-6.12
O=C(c1ccccc1)c1ccc2n1CCC2C(=O)O (stereo not drawn),3.41
NC(=O)c1ncn([C@@H]2O[C@H](CO)[C@@H](O)[C@H]2O)c1O,-2.67
CCN1CCCC1=O,-6.08
O=C(CCCCCCCC(=O)NCCO)NCCO,0.89
Cc1ccc2nc(NCCN)c3ncc(C)n3c2c1,6.76
NNC(=O)CN1C(=O)CN=C(c2ccccc2)c2cc(Br)ccc21,3.03
C[C@@]12CC[C@@H]3[C@@](CC[C@H]4[C@@]3(C)CCC[C@@]4(C)C(=O)O)(CC1=O)C2,-1.37
Cn1cc(-c2cnn3c(N)c(Br)c([C@@H]4CCCNC4)nc23)cn1,-3.05

# Block 5 — technique: RNA Bind-n-Seq; molecule type: RNA; sample: in vitro; concentration: not given; reference: input RNA pool; direction: higher = stronger binding
# Target: RING finger protein unkempt homolog, zinc fingers 1-6, GST-SBP tag (UNK, Homo sapiens, UniProt Q9C0B0, residues 30-357)
# Setting: RNA with constant flanks, human-mouse chimeric sites, ends assumed
# Construct (chain): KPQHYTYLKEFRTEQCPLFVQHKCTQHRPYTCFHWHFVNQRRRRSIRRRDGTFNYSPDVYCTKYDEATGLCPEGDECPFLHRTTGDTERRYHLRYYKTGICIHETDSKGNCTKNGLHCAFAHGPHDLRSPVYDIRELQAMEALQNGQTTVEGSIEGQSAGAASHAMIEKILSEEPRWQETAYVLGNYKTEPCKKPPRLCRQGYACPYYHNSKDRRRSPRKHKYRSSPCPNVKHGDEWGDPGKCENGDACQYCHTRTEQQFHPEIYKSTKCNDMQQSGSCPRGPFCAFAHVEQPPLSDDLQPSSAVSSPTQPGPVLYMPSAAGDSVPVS
Strand,bound/input enrichment [ratio]
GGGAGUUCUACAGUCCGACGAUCACUCAGAGAUUAUAUUCCCAAAGUGCUGGGAGUAAAGGUGUGGCCACCACACCUAACUUGAUGGAUAUAUAUUUUUUUUAAUAUGAAUGAACUCUUGCGUCCAGGGAAGAAAGAUUUGUUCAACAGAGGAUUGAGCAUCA,0.47
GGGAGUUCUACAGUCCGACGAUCAAAGAACUACUGAGGCAAGGCAGCAAAUUUAGAAGAAACAUUUCAACAAUAUUGAUAGAGUUAGGAUUCCAAAUUAAAAAGAAAACUAAGACAUUAUACAUCAACAAAGCCAAUAUCUGGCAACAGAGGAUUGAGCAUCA,22.6
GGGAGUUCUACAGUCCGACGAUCCACACACUCUUCUGUGGGACCCUCAUCUUGCAGGCCCGAGCCUACGUGGGACCGCACGUCCUGGCAGUGGUGACCCGCACAGGGUUCUGCACGGCAAAAGGGGGCCUGGUGAGCUCCAUCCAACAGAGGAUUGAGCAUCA,0.0593
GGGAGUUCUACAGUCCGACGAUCUACUACUAUGAUGGUGAUAUUGGCAAUUAUUAUUAUGGCCAGGGUCAUCCCAUGAAGCCUCAUAGAAUCCGCAUGACUCAUAACUUGCUGCUAAAUUAUGGCUUAUACCGAAAAAUGGAACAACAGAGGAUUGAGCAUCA,0.17
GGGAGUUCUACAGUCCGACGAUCGGCCUGGGACCGUCCUGGCUAGUGCAAAAUAGCGGCAGUGGAGGCUCGAGAGGAAAGUUUGUUAGUGGAGGCAGUGGUAGAGGCCGUCAUGUACGGUCCUUUACUCGAUAGAUGUGUUCUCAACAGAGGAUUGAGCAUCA,0.937
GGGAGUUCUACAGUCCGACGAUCGCUGAAAAUGAAGAAGAGGCAGCUGAUGUCUGGUACAACCUGGGGCACAUAGCUGUGGGAAUCGGAGAUACAAACUUGGCCCAUCAGUGCUUCAGGCUGGCUCUGGUCCACAACAACCACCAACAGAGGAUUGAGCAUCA,0.167
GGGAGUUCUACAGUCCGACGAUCGCUGAAAAUGAAGAAGAGGCAGCUGAUGUCUGGUACAACCUGGGGCACAUAGCUGUGGGAAUCGGAGAUACAAACUUGGCCCAUCAGUGCUUCAGGCUGGCCCUGGUCCACAACAACCACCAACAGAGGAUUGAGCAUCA,0.161
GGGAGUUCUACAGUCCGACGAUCGGCUGCUGGUGACUGUCCUGGAGUGGCUGGAGUUCCCCCGGAACCUGGGCCAGACUAAUUUUAGAAAAUGCCAAGUAGGAAGUUUGUUGAGGGUGAAGUGGUCAGAGGUCGAUGGCCUGGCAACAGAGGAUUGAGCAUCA,4.43

# Some of these lines once more (block 4):
Structure (SMILES),inhibition [%]
CCN(CC)C(=S)S,-5.73
NNC(=O)CN1C(=O)CN=C(c2ccccc2)c2cc(Br)ccc21,3.03
O=C(c1ccccc1)c1ccc2n1CCC2C(=O)O (stereo not drawn),3.41
C[C@@]12CC[C@@H]3[C@@](CC[C@H]4[C@@]3(C)CCC[C@@]4(C)C(=O)O)(CC1=O)C2,-1.37
C/C(=N\NC(=O)[C@H]1C(=O)NC[C@@H]1c1ccccc1)c1cccc(Br)c1,-12.8
